Measurements from different studies.
Each line is one published result; not all experiments were run side by side. ± marks the error that the study gave.

N=C(N)NCCC[C@@H]1NC(=O)[C@H](CCCCNC(=O)CNC(=O)CNC(=O)CNC(=O)CC[C@H](NC(=O)CCOCCOCCOCCOCCNC(=O)CC[C@H](NC(=O)CN2CCN(CC(=O)O)CCN(CC(=O)O)CCN(CC(=O)O)CC2)C(=O)NCCOCCOCCOCCOCCC(=O)N[C@@H](CCC(=O)NCC(=O)NCC(=O)NCC(=O)NCCCC[C@@H]2NC(=O)[C@@H](Cc3ccccc3)NC(=O)[C@H](CC(=O)O)NC(=O)CNC(=O)[C@H](CCCNC(=N)N)NC2=O)C(=O)NCC(=O)NCC(=O)NCC(=O)NCCCC[C@@H]2NC(=O)[C@@H](Cc3ccccc3)NC(=O)[C@H](CC(=O)O)NC(=O)CNC(=O)[C@H](CCCNC(=N)N)NC2=O)C(=O)NCC(=O)NCC(=O)NCC(=O)NCCCC[C@@H]2NC(=O)[C@@H](Cc3ccccc3)NC(=O)[C@H](CC(=O)O)NC(=O)CNC(=O)[C@H](CCCNC(=N)N)NC2=O)NC(=O)[C@@H](Cc2ccccc2)NC(=O)[C@H](CC(=O)O)NC(=O)CNC1=O [indium-111 labelled]  tissue uptake (female athymic nude mice, muscle; intravenous, 3 µCi, 72 h, U-87 MG glioma xenograft): 0.27 ± 0.07 %ID/g
CSCC[C@H](NC(=O)[C@H](CC(C)C)NC(=O)[C@H](Cc1c[nH]cn1)NC(=O)CNC(=O)[C@@H](NC(=O)[C@H](C)NC(=O)[C@H](Cc1c[nH]c2ccccc12)NC(=O)[C@H](CCC(N)=O)NC(=O)CCCCCNC(=O)CNC(=O)CNC(=O)CNC(=O)CSC(C)=O)C(C)C)C(N)=O [technetium-99m labelled]  tissue uptake (nude mouse, PC-3 xenograft, tumor; 30 min): 0.75 ± 0.15 %ID/g
N=C(N)NCCC[C@@H]1NC(=O)[C@H](CCCCNC(=O)CCOCCOCCOCCOCCNC(=O)CC[C@H](NC(=O)CCOCCOCCOCCOCCNC(=O)CC[C@H](NC(=O)CN2CCN(CC(=O)O)CCN(CC(=O)O)CCN(CC(=O)O)CC2)C(=O)NCCOCCOCCOCCOCCC(=O)N[C@@H](CCC(=O)NCCOCCOCCOCCOCCC(=O)NCCCC[C@@H]2NC(=O)[C@@H](Cc3ccccc3)NC(=O)[C@H](CC(=O)O)NC(=O)CNC(=O)[C@H](CCCNC(=N)N)NC2=O)C(=O)NCCOCCOCCOCCOCCC(=O)NCCCC[C@@H]2NC(=O)[C@@H](Cc3ccccc3)NC(=O)[C@H](CC(=O)O)NC(=O)CNC(=O)[C@H](CCCNC(=N)N)NC2=O)C(=O)NCCOCCOCCOCCOCCC(=O)NCCCC[C@@H]2NC(=O)[C@@H](Cc3ccccc3)NC(=O)[C@H](CC(=O)O)NC(=O)CNC(=O)[C@H](CCCNC(=N)N)NC2=O)NC(=O)[C@@H](Cc2ccccc2)NC(=O)[C@H](CC(=O)O)NC(=O)CNC1=O [indium-111 labelled]  tissue uptake (athymic nude mice, female, U-87 MG glioma xenograft, bone; intravenous, 3 µCi, 72 h): 0.66 ± 0.01 %ID/g
CCCC[C@H](NC(=O)CNC(=O)CNC(=O)c1ccc(NN)nc1)C(=O)N[C@H]1CC(=O)NCCCC[C@@H](C(N)=O)NC(=O)[C@H](Cc2c[nH]c3ccccc23)NC(=O)[C@H](CCCNC(=N)N)NC(=O)[C@@H](Cc2ccccc2)NC(=O)[C@H](Cc2c[nH]cn2)NC1=O [technetium-99m labelled]  tissue uptake (C57 mouse, B16/F1 melanoma, urine; 2 h, added: L-lysine 12 mg): 95 ± 1.54 %ID
N=C(N)NCCC[C@@H]1NC(=O)[C@H](CC(=O)NC23CNCCNCC(N)(CNCCNC2)CNCCNC3)NC(=O)[C@@H](Cc2ccccc2)NC(=O)[C@H](CC(=O)O)NC(=O)CNC1=O [copper-64 labelled]  tissue uptake (Nu/Nu mouse, male, tumour-bearing, blood; intravenous, 10 µCi, 1 h): 0.6 ± 0.31 %ID/g
N=C(N)NCCC[C@H](NC(=O)[C@H](CCCCN)NC(=O)[C@H](CCC(N)=O)NC(=O)CCOCCOCCOCCNC(=O)CN1CCN(CC(=O)O)CCN(CC(=O)O)CCN(CC(=O)O)CC1)C(=O)N[C@@H](CCCCN)C(=O)N[C@@H](CCCNC(=N)N)C(=O)N[C@@H](CCCCN)C(=O)N[C@@H](CCCCN)C(=O)N[C@@H](CO)C(=O)N[C@@H](CCCNC(=N)N)C(=O)N[C@@H](Cc1ccc(O)cc1)C(=O)N[C@@H](CCCCN)C(=O)N[C@@H](CO)C(=O)O [copper-64 labelled]  tissue uptake (male C57BL/6 mice, B16-F10 tumour, spleen; intravenous, 60 min): 0.97 ± 0.1 %ID/g
N=C(N)NCCC[C@@H]1NC(=O)[C@H](CCCCNC(=O)CC[C@H](NC(=O)CCOCCOCCOCCOCCNC(=O)CC[C@H](NC(=O)CN2CCN(CC(=O)O)CCN(CC(=O)O)CCN(CC(=O)O)CC2)C(=O)NCCOCCOCCOCCOCCC(=O)N[C@@H](CCC(=O)NCCCC[C@@H]2NC(=O)[C@@H](Cc3ccccc3)NC(=O)[C@H](CC(=O)O)NC(=O)CNC(=O)[C@H](CCCNC(=N)N)NC2=O)C(=O)NCCCC[C@@H]2NC(=O)[C@@H](Cc3ccccc3)NC(=O)[C@H](CC(=O)O)NC(=O)CNC(=O)[C@H](CCCNC(=N)N)NC2=O)C(=O)NCCCC[C@@H]2NC(=O)[C@@H](Cc3ccccc3)NC(=O)[C@H](CC(=O)O)NC(=O)CNC(=O)[C@H](CCCNC(=N)N)NC2=O)NC(=O)[C@@H](Cc2ccccc2)NC(=O)[C@H](CC(=O)O)NC(=O)CNC1=O [indium-111 labelled]  tissue uptake (female athymic nude mice, brain; intravenous, 3 µCi, 72 h, U-87 MG glioma xenograft): 0.02 ± 0.01 %ID/g
CSCC[C@H](NC(=O)[C@H](CC(C)C)NC(=O)[C@H](Cc1c[nH]cn1)NC(=O)CNC(=O)[C@@H](NC(=O)[C@H](C)NC(=O)[C@H](Cc1c[nH]c2ccccc12)NC(=O)[C@H](CCC(N)=O)NC(=O)CNC(=O)[C@H](CO)NC(=O)CNC(=O)CCCCCCCNC(=O)CCC(=O)Nc1ccc(CNC23CNCCNCC(N)(CNCCNC2)CNCCNC3)cc1)C(C)C)C(N)=O [copper-64 labelled]  tissue uptake (female SCID mice, PC-3 xenograft, kidney; intravenous, 0.6 MBq, 4 h): 5.53 ± 0.459 %ID/g
CCCC[C@H](NC(=O)CCCCCCCNC(=O)c1ccc(NN)nc1)C(=O)N[C@H]1CC(=O)NCCCC[C@@H](C(N)=O)NC(=O)[C@H](Cc2c[nH]c3ccccc23)NC(=O)[C@H](CCCNC(=N)N)NC(=O)[C@@H](Cc2ccccc2)NC(=O)[C@H](Cc2c[nH]cn2)NC1=O [technetium-99m labelled]  tissue uptake (C57 mouse, B16/F1 melanoma, stomach; 2 h, added: L-lysine 12 mg co-injected): 0.97 ± 0.36 %ID/g

Some of these lines once more:
CCCC[C@H](NC(=O)CNC(=O)CNC(=O)c1ccc(NN)nc1)C(=O)N[C@H]1CC(=O)NCCCC[C@@H](C(N)=O)NC(=O)[C@H](Cc2c[nH]c3ccccc23)NC(=O)[C@H](CCCNC(=N)N)NC(=O)[C@@H](Cc2ccccc2)NC(=O)[C@H](Cc2c[nH]cn2)NC1=O [technetium-99m labelled]  tissue uptake (C57 mouse, B16/F1 melanoma, urine; 2 h, added: L-lysine 12 mg): 95 ± 1.54 %ID
